Measurements of several laboratories.
Lines come from different studies, so protocols differ. Several values in a cell are separate wells, animals, samples, runs or records. ± gives the spread as reported.

Cc1nc(-c2cnc(NC(C)C)n(C)c2=O)ccc1Oc1ccnc(-c2cnn(C)c2)c1  apparent volume of distribution (DBA/1 mouse, female, plasma; oral, 15 mg/kg, single dose): 1.17 L/kg
COc1cc2nccc(Oc3ccc(NC(=O)c4cc5c(n(-c6ccccc6)c4=O)CCCC5=O)nc3)c2cc1OC  patients with sinus tachycardia (human, relapsed/refractory AML; oral, dose not given, grade ≥3, any causality, all doses): 10%
O=C(O)CCC(=O)O.[2H]C([2H])([2H])Oc1cc(C)c2[nH]ccc2c1CN1CC[C@@H](C2CC2)C[C@H]1c1ccc(C(=O)O)cc1  subjects with elevated uric acid (healthy Chinese subjects; oral, 200 mg, single ascending dose): 8.3%
Cn1cc(Nc2nccc(-c3ccc4c(c3)CN(C3COC3)CC[C@H]4NC(=O)c3cn(C(C)(C)C)nn3)n2)cn1  plasmablast count change (human, whole blood; 300 mg twice daily, day 7; reference: pre-dose baseline): 198%
Cc1ccc(S(=N)(=O)c2ccccc2)cc1 (stereo not drawn)  metabolic stability (human liver microsomes; reference: hepatic blood flow): 45%
CCOc1c([C@H](C)n2nc(C)c3c(N)ncnc32)cc(Cl)c(F)c1[C@@H]1CNC(=O)C1  AUC(0-last) geometric mean (patients, monotherapy; oral, 20 mg once daily, cycle 1 day 15): 11.1 µM·h
CC(C)(C(=O)N1CCOc2c(C#N)cncc2C1)C(F)F  subjects with TEAE (measured: renal and urinary disorders; human, both sexes; oral, 20 mg once daily, 14 days, multiple ascending dose): 0%
NC[C@@]1(CC(=O)O)[C@@H]2CC[C@H]3C[C@@H]2[C@@H]1C3  apparent volume of distribution (human, moderate renal impairment, plasma; oral, 20 mg single dose, geometric mean): 44 L
NC1(C(=O)N[C@@H](CCO)c2ccc(Cl)cc2)CCN(c2nc[nH]c3nccc2-3)CC1  incidence of Stomatitis (metastatic CRPC patients; 480 mg b.i.d., any grade, treatment-related, with: enzalutamide 160 mg daily): 20%
Nc1ncnc2c1c(Oc1cc(C(F)(F)F)ccn1)nn2[C@@H]1CCCC[C@H]1O  metabolic stability (rat liver microsomes): stable
Cc1c(Cl)c(C)[n+]([O-])c(Cl)c1-c1noc(-c2cc(O)c(O)c([N+](=O)[O-])c2)n1  adverse drug reaction incidence (measured: Belching; healthy Chinese subjects; oral, 25 mg, 4 days): 6.7%
CCc1c(C)nc(-c2ccc(Cl)s2)nc1Nc1ccc(CC(=O)O)cc1  serum urea nitrogen (mice, chronic ethanol plus binge; intraperitoneal, 0.3 mg/kg daily, ethanol diet 4 weeks, dosed last two; reference: vehicle): no effect
C=CCN1CC(=O)N2[C@@H](Cc3ccc(O)cc3F)C(=O)N(Cc3cccc(N4CC(N5CCN(CC)CC5)C4)n3)C[C@@H]2N1C(=O)NCc1ccccc1  patients with ALT increased (advanced solid tumour patients; 20 mg twice daily, treatment-related, any grade): 0%
COc1nnc2ccc(N3CCC(c4ccc(OCCN5CCN(C)C(=O)[C@H]5C)cc4)CC3)nn12  AUClast (human, plasma; oral, 5 mg once daily, single dose, monotherapy): 0.0778 µM·h
CNCc1ccc(-c2[nH]c3cc(F)cc4c3c2CCNC4=O)cc1  any adverse event incidence (patients; oral, 240 mg twice daily, all grades): 100%
O=C(Nc1nc2cccc(-c3ccc(CN4CCS(=O)(=O)CC4)cc3)n2n1)C1CC1  treatment-emergent adverse events (measured: vascular disorders; rheumatoid arthritis patients; oral, 150 mg once daily, 4 weeks, any relatedness): 0%
COc1ccc2[nH]c([S+]([O-])Cc3ncc(C)c(OC)c3C)nc2c1 (stereo not drawn)  AUC(0-t) (healthy Chinese volunteers CYP2C19 RM, plasma; oral, 20 mg single dose, fasted): 232 ng·h/mL
CC(=O)O[C@H]1C(=O)[C@@]2(C)[C@H]([C@H](OC(=O)c3ccccc3)[C@]3(O)C[C@H](OC(=O)[C@H](O)[C@@H](NC(=O)c4ccccc4)c4ccccc4)C(C)=C1C3(C)C)[C@]1(OC(C)=O)CO[C@@H]1C[C@@H]2O  adverse event incidence (measured: Fatigue; patients with advanced solid tumours; intravenous, dose not given, grade 1 and 2, possibly related to drug): 46%
CCOc1c([C@H](C)n2nc(C)c3c(N)ncnc32)cc(Cl)c(F)c1[C@@H]1CNC(=O)C1  stability relative error (rat plasma; 1600 ng/mL, 4 h, 10 °C, autosampler; reference: nominal concentration): 14.7%
COc1ccnc(C(=O)N[C@H]2COC(=O)[C@H](Cc3ccccc3)[C@@H](O)[C@H](C)OC2=O)c1O  DT50 (aerobic soil incubation; soil; worst-case terminal value, for exposure modelling): 31.3 days
Cc1cc(Nc2ccc(S(F)(F)(F)(F)F)cc2)n2nc(C(C)(F)F)nc2n1  adverse event Asthenia (Plasmodium vivax malaria patients; oral, 400 mg): 0%
OC[C@H]1O[C@@H](c2ccc(F)c(Cc3cc4ccccc4s3)c2)[C@H](O)[C@@H](O)[C@@H]1O  hypoglycaemia-related adverse event (Japanese patients, type 1 diabetes; oral, 25 mg/day, onset day 6; reference: patients): 4%
NC(=S)NN=Cc1ncccc1N  Vss (human, plasma; intravenous, 50 mg, geometric mean): 98 L
[18F]c1ccc(-c2ccc3c(c2)[nH]c2ccncc23)cn1  SUV (ex vivo biodistribution; APP/PS1 mouse, AD model, thalamus; intravenous, 30 min): 0.326 ± 0.041
Cc1cc(-c2nnc(N)nc2-c2ccc(F)cc2)cc(Cl)n1  incidence of treatment-related AE (measured: decreased appetite, any grade; IO-naive CRC patients; oral, dose not given): 20%
Cc1ccc(Sc2ccccc2N2CCNCC2)c(C)c1  participants with TEAE (measured: eosinophil count increased; healthy adult men; oral, 5 mg daily, 12 days): 0%
CC(C(=O)Nc1cccc(/N=C/c2c(O)ccc3ccccc23)c1)c1ccccc1 (stereo not drawn)  viability (HBL-1; 1 µM, 120 h): 94.7%
N#Cc1ccc2c(c1)[C@H]1CCCN(C(=O)c3ccc4[nH]cnc4c3)[C@H]1C2  androstenedione level (human, male; 160 mg, day 15): 15.6 nmol/L
Cc1nc(-c2ccc(OCC(C)C)c(C#N)c2)sc1C(=O)O  body weight (KM mouse, chronic hyperuricaemia model; dose not given, day 15): 30.4 g and 32 g and 32.6 g and 39.4 g and 35.6 g and 35.8 g
C[C@H]1CN(C(=O)CC#N)[C@]12CCN(c1ncnc3[nH]ccc13)C2  subjects with Paraesthesia (healthy human; oral, dose not given): 3.1%
C[C@@H]1OC(=O)[C@H](Cc2ccccc2)[C@H]1O  DT50 (aerobic dark soil incubation; clay loam soil; 20 °C, persistence endpoint): 0.12 days
Cc1cc(C)c(CNC(=O)c2cc(Cl)c3c(c2C)O[C@@](C)([C@H]2CC[C@H](N(C)C)CC2)O3)c(=O)[nH]1  cumulative excretion (measured: total radioactivity; human, fasted, urine; oral, 200 mg [14C] single dose, 0 to 360 h; reference: dose): 15.6%
CC[C@H](C)n1cc(C)c2c(C(=O)NCc3c(C)cc(C)[nH]c3=O)cc(-c3ccc(N4CCNCC4)nc3)cc21  viability (HBL-1; 0.5 µM, 120 h): 142%
CCc1cc(C(=O)NC)c2nccc(N3CCc4c(cc(Cn5ccnc5)cc4-c4cn(C)nc4C(F)(F)F)C3=O)c2c1  serum UA level (Sprague Dawley rats; oral, 100 mg/kg twice daily, 7 days): 316 ± 60.9 µmol/L
C=CC(=O)Nc1cc(Nc2nccc(-c3cn(C)c4ccccc34)n2)c(OC)cc1N(C)CCN(C)C  percentage recovery (storage stability; human dried blood spot samples; 30 d, -80 °C, LQC level; reference: nominal concentration): 45.6%
Cc1ccc([C@@H]2O[C@H](CO)[C@@H](O)[C@H](O)[C@H]2O)cc1Cc1ccc(-c2ccc(F)cc2)s1  urinary sodium excretion change (Japanese type 2 diabetes patients; 25 mg, day 2, 24 h urine collection; reference: baseline): -40.7 mEq
Cc1cc(-c2nccc3c2ccn3CC(=O)Nc2ccc(-c3cnccn3)cn2)ccn1  subjects with breath odour (human; 20 mg once daily, multiple ascending dose): 0%
COc1ccc(/C=N/NC(=O)Cn2c(-c3ccc(S(C)(=O)=O)cc3)nc3cc(C)ccc32)cc1  ulcer number (rat, stomach; concentration not given, 4 h): 2.67
C=CC(=O)N1CCC(Oc2cc3c(Nc4ccc(Cl)c(Cl)c4F)ncnc3cc2OC)CC1  Vz/F (Sprague-Dawley rat, male, plasma; oral, 2 mg/kg, with: vehicle pretreatment): 2.15 ± 1.01 L/kg
C[C@@H](N)C1CCN(S(=O)(=O)c2cccc3cnccc23)CC1  participants with epistaxis (healthy volunteers; 25 mg, fasted): 0%
OB1NN=Cc2ccccc21  peak area (stability, UPLC-MS; diluted serum; 4 day, 37 °C; higher = more compound remaining): 306000 a.u. and 301000 a.u. and 304000 a.u.
Cc1cc(NC2CCN(C(=O)OC3CCN(C(=O)/C=C/CN(C)C)C3)CC2)n2ncc(C(C)C)c2n1 (stereo not drawn)  patients with adverse event (Phase I dose escalation CTCAE v4.0, measured: blood creatinine increased; patients with advanced solid tumours; dose not given, QD dosing grade 3 or higher): 0%
COc1cc(C(=O)N2CCC3(CC2)CC(=O)c2c(cnn2C(C)C)C3)cc(-c2ccc(C(=O)O)cc2)n1  placebo-adjusted change from baseline (measured: total cholesterol; human, fasting serum; 30 mg every 12 h, day 13, adjusted geometric mean; reference: baseline and placebo): -2%
CCCCCN(C)CCC(O)(P(=O)(O)O)P(=O)(O)OP(=O)(O)OC[C@H]1O[C@@H](n2ccc(N)nc2=O)C(F)(F)[C@@H]1O (stereo partly drawn)  hydrolysis half-life (buffer; concentration not given, pH 2.7, 22 °C): 27.7 h
CCCCCCCOc1ccc(CCC(N)(CO)CO)cc1C(F)(F)F.Cl  renal clearance (healthy men; oral, 0.25 mg, day 21): 0.113 mL/min
CC(=O)N(C)[C@H]1CCN(C(=O)c2cnc3c(c2)C[C@](C)(c2ccc(F)cc2)N3)C1  adverse event duration (measured: abdominal pain; human; oral, 15 mg once daily): 1 days
CN1C[C@H](COc2nccc3c(NCc4ccco4)cc(Cl)nc23)OC1=O  left ventricular peak systolic pressure (rabbit NZW female, isolated Langendorff heart; 3 µM, 15 min): 110 mmHg
Cn1cncc1-c1c(F)cncc1NC(=O)c1c(N)nn2cc(F)cnc12  grade ≥3 adverse events (patients, advanced solid tumours; oral, 180 mg once daily, 2 weeks on 1 week off; reference: patients): 0%
CSc1ccccc1C(=O)NCCn1cc(C(=O)NCc2cccc(C)n2)c(=O)c2cc3c(cc21)OC(F)(F)O3  AUC(0-t) (Sprague-Dawley rat, male, whole blood; intravenous, 5 mg/kg of parent compound): 129 ± 11.5 ng·h/mL
CCN1/C(=C/C(C)=O)Sc2ccc(F)cc21  heart rate change (cynomolgus monkey; oral, 10 mg/kg, 2 h post-dose; reference: pre-dose): 108 ± 20.6%
Cc1ccc(O)c(-n2nc3ccccc3n2)c1  daily dermal uptake, percentile (exposure assessment; human, age 3-6 years; concentration not given, spray sunscreen, 95th percentile): 3980 ng/kg body weight/day
O=C(Nc1cnccc1Cl)N1CCN(Cc2ccc3c(c2)OC(F)(F)O3)CC1  renal clearance (elderly men and women, urine; oral, 100 mg once daily, day 10): 0.19 mL/min
Cc1cccc(CNC(=O)c2cn(CCNC(=O)c3ccccc3Sc3c([N+](=O)[O-])ncn3C)c3cc4c(cc3c2=O)OC(F)(F)O4)n1  bioavailability (Sprague-Dawley rat, male, whole blood; intramuscular, 30 mg/kg of parent drug): 34.2 ± 20.6%
O=C(N[C@H](Cc1c[nH]c2ccccc12)C(=O)Nc1ccncc1)c1ccc(-c2ccc(F)c(Cl)c2)cc1F  concentration (Swiss Webster mouse, female, heart; oral, 50 mg/kg, 8 h, 20% Kolliphor vehicle): 20.5 µM
C[C@H]1Oc2cc(cnc2N)-c2c(nn(C)c2C#N)CN(C)C(=O)c2ccc(F)cc21  AUClast (human patients, plasma; oral, dose not given, cycle 2 day 1, median, with: avelumab): 4510 ng·h/mL
CCn1c(=O)c(-c2cc(NC(=O)Nc3ccccc3)c(F)cc2Br)cc2cnc(NC)cc21  participants with grade ≥ 3 TEAE (measured: investigations; healthy human, matched to moderate hepatic impairment; oral, 50 mg single dose): 0%
CCO  heart rate increased (human; concentration not given, treatment-emergent adverse event): 11.1%

Some of these lines once more:
NC1(C(=O)N[C@@H](CCO)c2ccc(Cl)cc2)CCN(c2nc[nH]c3nccc2-3)CC1  incidence of Stomatitis (metastatic CRPC patients; 480 mg b.i.d., any grade, treatment-related, with: enzalutamide 160 mg daily): 20%
CCN1/C(=C/C(C)=O)Sc2ccc(F)cc21  heart rate change (cynomolgus monkey; oral, 10 mg/kg, 2 h post-dose; reference: pre-dose): 108 ± 20.6%
O=C(O)CCC(=O)O.[2H]C([2H])([2H])Oc1cc(C)c2[nH]ccc2c1CN1CC[C@@H](C2CC2)C[C@H]1c1ccc(C(=O)O)cc1  subjects with elevated uric acid (healthy Chinese subjects; oral, 200 mg, single ascending dose): 8.3%
COc1nnc2ccc(N3CCC(c4ccc(OCCN5CCN(C)C(=O)[C@H]5C)cc4)CC3)nn12  AUClast (human, plasma; oral, 5 mg once daily, single dose, monotherapy): 0.0778 µM·h
COc1cc(C(=O)N2CCC3(CC2)CC(=O)c2c(cnn2C(C)C)C3)cc(-c2ccc(C(=O)O)cc2)n1  placebo-adjusted change from baseline (measured: total cholesterol; human, fasting serum; 30 mg every 12 h, day 13, adjusted geometric mean; reference: baseline and placebo): -2%
CN1C[C@H](COc2nccc3c(NCc4ccco4)cc(Cl)nc23)OC1=O  left ventricular peak systolic pressure (rabbit NZW female, isolated Langendorff heart; 3 µM, 15 min): 110 mmHg
Cc1c(Cl)c(C)[n+]([O-])c(Cl)c1-c1noc(-c2cc(O)c(O)c([N+](=O)[O-])c2)n1  adverse drug reaction incidence (measured: Belching; healthy Chinese subjects; oral, 25 mg, 4 days): 6.7%
